Measured values of several laboratories.

| SMILES | test | system | setting | measurement | value |
| --- | --- | --- | --- | --- | --- |
| N[C@@H]1c2ccccc2OC12CCN(c1cnc3c(N4CCCc5ncccc54)n[nH]c3n1)CC2 |  | advanced solid tumour patients | oral, 40 mg once daily | patients with grade ≥3 TEAE | 25% |
| CN1CC[C@@H](c2c(O)cc(O)c3c(=O)cc(-c4ccc(C(F)(F)F)cc4Cl)oc23)[C@@H]1CO | refers to: Epistaxis | relapsed AML | oral, 150 mg, grade 3-4, intermittent dosing | patients with adverse event | 50% |
| C=CCNc1c(O)cc2c(O)c1C[C@@H](C)C[C@H](OC)[C@H](O)[C@@H](C)/C=C(\C)[C@H](OC(N)=O)[C@@H](OC)/C=C\C=C(/C)C(=O)N2 | refers to: Nausea | unresectable or metastatic GIST/STS | intravenous, dose not given, all doses | patients with TEAE | 52% |
| CC(=O)c1c(C)c2cnc(Nc3ccc(C4CCN(CCS(C)(=O)=O)CC4)cn3)nc2n(C2CCCC2)c1=O |  | HR+/HER2- advanced breast cancer patients | oral, 100 mg bid, grade 3/4, monotherapy arm | patients with platelet count decreased | 0% |
| O=C1Nc2cc3[nH]nc(-c4ccncc4)c3cc2CN1Cc1ccccc1 | CTCAE v4.03 | advanced solid tumour patients | intravenous, 4.8 mg/kg | patients with dyspepsia | 0% |
| Nc1nc2cc(-c3ccc4ncc(C(=O)N5CCOCC5)n4c3)ccc2o1 | refers to: Hypokalemia, any cause, all grades | patients with advanced solid tumours | dose not given | patients with adverse events | 26% |
| CO[C@H]1C[C@@H]2CC[C@@H](C)[C@@](O)(O2)C(=O)C(=O)N2CCCC[C@H]2C(=O)O[C@H]([C@H](C)C[C@@H]2CC[C@@H](OC(=O)NCCOCCOCCOCCOCCOCCOCCOCCOCCC(=O)N3CCc4cc(Cn5nc(-c6ccc7oc(N)nc7c6)c6c(N)ncnc65)ccc4C3)[C@H](OC)C2)C[C@@H](O)[C@H](C)/C=C(\C)[C@@H](O)[C@@H](OC)C(=O)[C@H](C)C[C@H](C)/C=C/C=C/C=C/1C | refers to: grade ≥3 treatment-related mucositis | patients with advanced solid tumours | intravenous, dose not given, all patients, weekly | patients with AE | 11% |
| Cc1cc(OCCOCCC(F)(F)P(=O)(O)O)ccc1CCc1cnc2c(N)nc3cc(CCC(=O)O)ccc3c2c1 | refers to: anemia | adults with advanced solid tumours | dose not given, all groups pooled, all grades | patients with non-serious AE | 24.4% |
| C[C@@H]1OC(=O)NN=C1c1ccc(-c2ccc(F)cc2)c(C(F)(F)F)c1 |  | patients, phase I trial | oral, dose not given, all arms, any grade TEAE | patients with platelet count decreased | 60% |
| COc1c(OCCCN2CCOCC2)ccc2c1N=C(NC(=O)c1cnc(N)nc1)N1CCN=C21 | refers to: decreased platelet count | patients with advanced malignancies | intravenous, dose not given, any grade, all cohorts, added: gemcitabine | patients with adverse event | 80% |
| CCN(CCO)CCCC(C)Nc1ccnc2cc(Cl)ccc12 (centres unmarked) | refers to: Headache grade 1 | newly diagnosed glioblastoma patients | oral, 400 mg/dose, with radiotherapy and temozolomide | patients with adverse event | 14% |

Repeated from above:
| SMILES | test | system | setting | measurement | value |
| --- | --- | --- | --- | --- | --- |
| CC(=O)c1c(C)c2cnc(Nc3ccc(C4CCN(CCS(C)(=O)=O)CC4)cn3)nc2n(C2CCCC2)c1=O |  | HR+/HER2- advanced breast cancer patients | oral, 100 mg bid, grade 3/4, monotherapy arm | patients with platelet count decreased | 0% |
